{"data": "Experimental data collected from several papers", "read-out": "metabolic stability", "note": "Each line is one published result; not all experiments were run side by side. Values joined by “and” are separate records of one study, mostly repeats; a detail may differ."}
{"SMILES": "CN(C)C(=O)c1ccnc(N2Cc3cn(Cc4ccc(F)cc4F)nc3C2)n1", "species": "rat", "medium": "liver microsomes", "half-life": "451 min"}
{"SMILES": "CCOC(=O)N1CCC(Oc2nc3c(c(=O)n(C)c(=O)n3C)n2Cc2cccc(C)c2)CC1", "species": "rat", "medium": "liver microsomes", "half-life": "2 min"}
{"SMILES": "CC1(CCCCCCCCCCCCOCCCOP(=O)(O)CO[C@H](CO)Cn2ccc(N)nc2=O)COC1", "species": "rat", "medium": "hepatocytes", "tested at": "1 µM", "half-life": "22.9 min"}
{"SMILES": "Brc1ccc(Nc2nc(NN=Cc3c[nH]c4ccccc34)nc(N3CCOCC3)n2)cc1", "species": "rat", "medium": "liver microsomes", "tested at": "0.1 µM", "pH": "pH 7.4", "half-life": "63.3 min"}
{"SMILES": "CCNC(=O)[C@H](CC(C)C)NC(=O)[C@H](Cc1c[nH]cn1)NC(=O)CNC(=O)[C@@H](NC(=O)[C@H](C)NC(=O)[C@H](Cc1c[nH]c2ccccc12)NC(=O)[C@H](CCC(N)=O)NC(=O)[C@H](N)Cc1ccccc1)C(C)C", "species": "rat", "medium": "hepatocytes", "half-life": "32 min"}
{"SMILES": "CC(C)CCCn1c(CN2CCN(C(=O)C3CC3)CC2)nc2c1c(=O)n(C)c(=O)n2C", "species": "rat", "medium": "liver microsomes", "half-life": "5 min"}
{"SMILES": "CC1(CCCCCCCCCCCCS(=O)(=O)CCCOP(=O)(O)CO[C@H](CO)Cn2ccc(N)nc2=O)COC1", "species": "rat", "medium": "hepatocytes", "tested at": "1 µM", "half-life": "41.6 min"}
{"SMILES": "CCC(CC)[C@H](NC(C)=O)[C@@H]1[C@H](O)[C@@H](C(=O)N[C@H](C(=O)O)[C@@H](C)CC)C[C@H]1NC(=N)N", "species": "Sprague-Dawley rat", "medium": "intestine", "tested at": "100 µg/mL", "pH": "pH 7.4", "half-life": "1700 min"}
{"SMILES": "CNC(=O)c1ccc(Oc2nc3c(c(=O)n(C)c(=O)n3C)n2CCC(C)C)cc1", "species": "rat", "medium": "liver microsomes", "half-life": "> 30 min"}
{"SMILES": "COC(=O)c1ccc(/C=N/NS(=O)(=O)c2ccc(OC)c(OC)c2)cc1", "species": "male Wistar rat", "medium": "liver microsomes", "tested at": "10 µM", "pH": "pH 7.4", "half-life": "4.3 min"}
{"SMILES": "Cc1cccc(Cn2c(OC3CCN(C(=O)C4CC4)CC3)nc3c2c(=O)n(C)c(=O)n3C)c1F", "species": "rat", "medium": "liver microsomes", "half-life": "4 min"}
{"SMILES": "Cc1ccc(N2C(=O)c3ccccc3NC23C(=O)N(C)c2ccc(Br)cc23)cc1 (centres unmarked)", "species": "rat", "medium": "hepatocytes", "half-life": "5.2 min"}
{"SMILES": "C#Cc1cccc(Nc2ncnc3cc(OC)c(OCCCN4CCOCC4)cc23)c1", "species": "rat", "medium": "liver microsomes", "tested at": "1 µM", "pH": "pH 7.4", "half-life": "11.8 min"}
{"SMILES": "CC(C)CCn1c(OC2CN(C(=O)C3CC3)C2)nc2c1c(=O)n(C)c(=O)n2C", "species": "rat", "medium": "liver microsomes", "half-life": "> 30 min"}
{"SMILES": "CC1(CCCCCCCCCCOCCCOP(=O)(O)CO[C@H](CO)Cn2ccc(N)nc2=O)COC1", "species": "rat", "medium": "hepatocytes", "tested at": "1 µM", "half-life": "73.8 min"}
{"SMILES": "O=C1C2=C(CCN(Cc3ccccc3)C2)N2CCN=C2N1Cc1ccc(C(F)(F)F)cc1", "species": "rat", "medium": "liver microsomes", "half-life": "7.12 min"}
{"SMILES": "Nc1nc(Cl)nc2c1ncn2Cc1cc(OCC(F)F)cc(OC(F)F)c1", "species": "rat", "medium": "liver microsomes", "half-life": "169 min"}
{"SMILES": "CN(C)C(=O)c1cncc(N2Cc3cn(Cc4ccc(F)cc4)nc3C2)n1", "species": "rat", "medium": "liver microsomes", "half-life": "309 min"}
{"SMILES": "CC(C)CCn1c(CN2CCCN(C(=O)C3CC3)CC2)nc2c1c(=O)n(C)c(=O)n2C", "species": "rat", "medium": "liver microsomes", "half-life": "5 min"}
{"SMILES": "O=C(Cc1ccccc1)Nc1nc2ccccc2n1Cc1ccccc1", "species": "rat", "medium": "liver microsomes", "half-life": "12 min and 12.2 min"}
{"note": "A few entries again:"}
{"SMILES": "CC1(CCCCCCCCCCCCS(=O)(=O)CCCOP(=O)(O)CO[C@H](CO)Cn2ccc(N)nc2=O)COC1", "species": "rat", "medium": "hepatocytes", "tested at": "1 µM", "half-life": "41.6 min"}
{"SMILES": "CC1(CCCCCCCCCCCCOCCCOP(=O)(O)CO[C@H](CO)Cn2ccc(N)nc2=O)COC1", "species": "rat", "medium": "hepatocytes", "tested at": "1 µM", "half-life": "22.9 min"}
